Results of several laboratories.
Each line is one published result; not all experiments were run side by side. ≈ marks a conversion by molar mass, not a printed value.
Sequence of UniProt Q9UQ88 (whole entry, looked up): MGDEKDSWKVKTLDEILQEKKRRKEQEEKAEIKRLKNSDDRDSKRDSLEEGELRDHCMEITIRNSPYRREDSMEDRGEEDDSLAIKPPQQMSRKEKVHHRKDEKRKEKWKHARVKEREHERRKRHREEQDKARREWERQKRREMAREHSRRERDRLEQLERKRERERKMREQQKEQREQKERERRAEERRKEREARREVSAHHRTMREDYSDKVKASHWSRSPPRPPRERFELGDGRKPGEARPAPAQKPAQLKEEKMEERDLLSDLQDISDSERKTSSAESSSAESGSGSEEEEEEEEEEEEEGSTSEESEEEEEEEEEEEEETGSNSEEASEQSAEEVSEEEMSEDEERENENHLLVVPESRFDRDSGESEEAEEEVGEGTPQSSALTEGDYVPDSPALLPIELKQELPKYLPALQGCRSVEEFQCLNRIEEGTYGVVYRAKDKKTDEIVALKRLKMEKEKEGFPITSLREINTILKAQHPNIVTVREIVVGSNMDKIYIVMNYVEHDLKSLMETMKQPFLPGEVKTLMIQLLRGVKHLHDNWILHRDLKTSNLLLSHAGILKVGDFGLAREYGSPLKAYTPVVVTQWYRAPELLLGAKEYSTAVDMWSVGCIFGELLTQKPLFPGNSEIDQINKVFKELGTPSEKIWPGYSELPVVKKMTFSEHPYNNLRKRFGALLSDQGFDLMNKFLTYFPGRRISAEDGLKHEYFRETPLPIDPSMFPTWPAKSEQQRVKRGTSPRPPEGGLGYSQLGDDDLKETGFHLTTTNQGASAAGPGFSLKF
Sequence of UniProt Q9UPZ9 (whole entry, looked up): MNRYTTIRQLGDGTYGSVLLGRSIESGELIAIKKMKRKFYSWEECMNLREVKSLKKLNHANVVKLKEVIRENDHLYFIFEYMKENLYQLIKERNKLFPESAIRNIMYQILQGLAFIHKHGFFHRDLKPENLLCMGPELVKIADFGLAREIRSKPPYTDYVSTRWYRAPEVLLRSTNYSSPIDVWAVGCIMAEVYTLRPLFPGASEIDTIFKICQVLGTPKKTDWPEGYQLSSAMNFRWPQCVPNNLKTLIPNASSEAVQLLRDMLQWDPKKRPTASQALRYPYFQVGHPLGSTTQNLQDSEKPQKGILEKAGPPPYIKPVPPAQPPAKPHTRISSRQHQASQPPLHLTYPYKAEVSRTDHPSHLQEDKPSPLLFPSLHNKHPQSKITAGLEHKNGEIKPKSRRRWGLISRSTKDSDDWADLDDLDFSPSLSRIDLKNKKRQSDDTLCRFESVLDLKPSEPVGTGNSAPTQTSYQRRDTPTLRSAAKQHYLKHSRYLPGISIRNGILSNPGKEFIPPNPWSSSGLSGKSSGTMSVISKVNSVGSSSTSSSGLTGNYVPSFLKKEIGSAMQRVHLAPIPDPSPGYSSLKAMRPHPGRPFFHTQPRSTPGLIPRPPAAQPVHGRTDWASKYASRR
Sequence of UniProt P23975 (whole entry, looked up): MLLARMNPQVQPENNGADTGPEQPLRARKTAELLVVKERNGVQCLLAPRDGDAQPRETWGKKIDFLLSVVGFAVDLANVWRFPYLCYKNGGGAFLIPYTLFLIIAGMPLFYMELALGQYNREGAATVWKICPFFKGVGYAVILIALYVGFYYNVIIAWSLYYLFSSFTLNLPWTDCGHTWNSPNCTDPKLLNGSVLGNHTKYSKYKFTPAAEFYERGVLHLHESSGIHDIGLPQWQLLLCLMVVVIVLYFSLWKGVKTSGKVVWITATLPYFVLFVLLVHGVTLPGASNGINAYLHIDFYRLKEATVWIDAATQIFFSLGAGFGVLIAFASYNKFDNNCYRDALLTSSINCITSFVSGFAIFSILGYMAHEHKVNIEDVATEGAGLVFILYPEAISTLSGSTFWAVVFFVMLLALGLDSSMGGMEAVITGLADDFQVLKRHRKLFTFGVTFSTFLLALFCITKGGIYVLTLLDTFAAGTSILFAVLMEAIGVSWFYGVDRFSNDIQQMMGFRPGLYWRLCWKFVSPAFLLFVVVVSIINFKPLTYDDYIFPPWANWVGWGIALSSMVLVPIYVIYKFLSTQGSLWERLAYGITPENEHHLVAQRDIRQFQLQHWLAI

For `CCC[C@@](N)(CO)CCc1ccc(OCCCCCC(C)C)cc1`, the Cmax was 33.8 nM (dog, plasma; intravenous, 0.25 mg/kg).
With `C#Cc1ccc2c(c1)C(c1ccccn1)=NCc1c(-c3cnco3)ncn1-2` the kinetic solubility was 325 µg/mL (≈ 924 µM) (water; 1 h, 37 °C).
For `C=C(C)[C@@H]1CC[C@]2(NCCN3CCS(=O)(=O)CC3)CC[C@]3(C)[C@H](CC[C@@H]4[C@@]5(C)CC=C(C6=CC[C@@](COc7ncccc7C#N)(C(=O)O)CC6)C(C)(C)[C@@H]5CC[C@]43C)[C@@H]12`, the concentration was 317 ng/mL (human, plasma; oral, 100 mg, 24 h, fed).
`NC(=O)[C@@H]1CC(F)(F)CN1C(=O)c1ccc(N2CC(F)(F)C2)c(OCC2CC2)n1` gave a Vd of 3.5 L/kg (C57BL/6 mouse, plasma; intravenous).
For `C[C@H]1COCCN1c1nc(NCc2cccnc2C(F)(F)F)c2cccnc2n1`, the hepatocyte CLint was 4.6 µL/min/10⁶ cells (metabolic stability; monkey, hepatocytes).
For `Cc1nn(C)cc1-c1nc2c(N3CCN(Cc4ccc(Cl)cc4)CC3)c(Cl)cnc2[nH]1`, the remaining binding was 92% (CILK1 (Homo sapiens, UniProt Q9UPZ9); binding, competition with immobilised ligand; 1 µM).
`CC(C)C[C@H]1NC(=O)[C@@H](N)CSSC[C@@H](C(=O)O)NC(=O)[C@H](Cc2ccccc2)NC(=O)[C@H](C)NC(=O)[C@H]([C@@H](C)O)NC(=O)[C@H]2CCCN2C(=O)[C@@H]2CCCN2C(=O)[C@H](C(C)C)NC(=O)[C@H](CCC(=O)O)NC1=O` gave a solubility of 708 µM (≈ 763 µg/mL) (aqueous buffer; 18 h, pH 7.4).
The compound remaining of `CC(C)C[C@H](NC(=O)[C@H](Cc1ccccc1)NC(=O)[C@H](Cc1ccccc1)NC(=O)Cc1ccc(-c2ccccc2)cc1)C(=O)N[C@@H](CCCCN)C(=O)N[C@@H](CCCNC(=N)N)C(=O)N[C@H](C(=O)N[C@@H](Cc1c[nH]c2ccccc12)C(=O)N[C@@H](CCCCN)C(=O)N[C@@H](CCCNC(=N)N)C(=O)O)C(C)C` is reported as 7.6% (metabolic stability; monkey, liver microsomes; 1 h).
`CC[C@H](C)[C@H]1C(=O)N[C@H](Cc2ccc(O)cc2)C(=O)N[C@H](C(=O)O)CSSC[C@H](N)C(=O)N[C@@H](Cc2ccccc2)C(=O)N[C@@H](C(C)C)C(=O)N[C@@H](CC(C)C)C(=O)N2CCC[C@H]2C(=O)N[C@@H](CC(N)=O)C(=O)N[C@@H](Cc2ccc(O)cc2)C(=O)N1C` has a solubility of 646 µM (≈ 805 µg/mL) (aqueous buffer; 18 h, pH 7.4).
The Tmax of `COc1ccc(F)cc1C(=O)NCc1ccc(-c2nn([C@@H](C)C(F)(F)F)c(N)c2C(N)=O)cc1` is reported as 3 h (human, plasma; oral, 200 mg, single dose, fasted, healthy volunteers).
For `Cc1[nH]c(C)c(S(=O)(=O)Nc2ccc(S(F)(F)(F)(F)F)c(Cl)c2)c1C(=O)N1CCC(F)(F)C1`, the half-life was 0.45 h (metabolic stability; mouse, liver microsomes).
With `CC(C)(N)CNC(=O)O[C@@H]1CCC[C@]2(C1)OOC1(O2)C2CC3CC(C2)CC1C3` (stereo partly shown) the Tmax was 1 h (male CD-1 mouse, plasma; oral, 10 mg/kg).
`CC[C@H](C)[C@H](NC(=O)[C@H](Cc1ccccc1)NC(=O)[C@H](CCC(=O)O)NC(=O)[C@H](CCCNC(=N)N)NC(=O)[C@H](C)NC(=O)[C@H](C)NC(=O)[C@H](CCC(N)=O)NC(=O)[C@H](CCC(=O)O)NC(=O)[C@H](CCC(=O)O)NC(=O)[C@H](CC(C)C)NC(=O)[C@H](Cc1ccc(O)cc1)NC(=O)[C@H](CO)NC(=O)[C@H](CO)NC(=O)[C@@H](NC(=O)[C@H](CC(=O)O)NC(=O)[C@H](CO)NC(=O)[C@@H](NC(=O)[C@H](Cc1ccccc1)NC(=O)[C@@H](NC(=O)CNC(=O)[C@H](CCC(=O)O)NC(=O)[C@H](C)NC(=O)CCc1c[nH]cn1)[C@@H](C)O)[C@@H](C)O)C(C)C)C(=O)N[C@@H](C)C(=O)N[C@@H](Cc1c[nH]c2ccccc12)C(=O)N[C@@H](CC(C)C)C(=O)N[C@H](C(=O)N[C@@H](CCCNC(=N)N)C(=O)NCC(=O)N[C@@H](CCCNC(=N)N)C(=O)N[C@@H](CCCCNC(=O)COCCOCCNC(=O)COCCOCCNC(=O)CC[C@H](NC(=O)CCCCCCCCCCCCCCCCC(=O)O)C(=O)O)C(=O)NCC(=O)NCC(=O)N[C@@H](CO)C(=O)N[C@@H](CCCCNc1c(NCCCCCN(O)C(=O)CCC(=O)NCCCCCN(O)C(=O)CCC(=O)NCCCCCN(O)C(C)=O)c(=O)c1=O)C(=O)O)C(C)C` has a Vd of 0.0845 L/kg (rat, plasma; intravenous, 20 nmol/kg).
The viability of `COc1ccc(Nc2nn3c(-c4ccccc4)ccnc3c2C(=O)Nc2ccccc2)cc1` is reported as 21.4% (A549; cell growth or viability, MTT; 100 µg/mL, 48 h, serum-free).
For `CN1CCN(S(=O)(=O)c2cc([N+](=O)[O-])ccc2N(CCOS(C)(=O)=O)CCOS(C)(=O)=O)CC1`, the half-life was 0.17 h (female SCID mouse, plasma; intraperitoneal, 10 mg/kg).
The inhibition of `N.N.[Cl][Pt][Cl]` is reported as 100% (Toledo; cell growth or viability, ATP luminescence; 10 µM, 72 h).
The solubility of `CC[C@@H]1NC(=O)[C@H](CC(C)C)NC(=O)CNC(=O)CNC(=O)[C@@H](CC(C)C)NC(=O)[C@@H](Cc2ccc(O)cc2)NC(=O)CSC[C@@H](C(=O)O)NC(=O)[C@H](C(C)C)NC(=O)[C@H](CC(C)C)NC(=O)[C@H](C)NC(=O)[C@H]([C@@H](C)CC)NC1=O` is reported as 4 µM (≈ 4.59 µg/mL) (aqueous buffer; pH 7.4).
`CC(C)CC(=O)OC[C@H]1O[C@@](C#N)(c2ccc3c(N)ncnn23)[C@H](O)[C@@H]1O` has a fraction unbound of 0.3 (dog, plasma).
With `Nc1ncc(-c2nc(N3CCOCC3)nc(N3CCOCC3)n2)c(C(F)F)n1` the remaining signal was 98.5% (SLC6A2 (Homo sapiens, UniProt P23975); cell-free assay, radioligand; 10 µM).
`CCCC[C@@H]1NC(=O)[C@H](Cc2ccc(O)cc2)NC(=O)[C@@H]2CCCN2C(=O)[C@H](CC(=O)O)NC(=O)[C@H](C)NC(=O)[C@H](Cc2ccccc2)NC(=O)[C@@H]2CSCCC(=O)N3CN(CN(C3)C(=O)CCSC[C@@H](C(=O)N[C@@H](C)C(N)=O)NC1=O)C(=O)CCSC[C@H](NC(=O)[C@H](C)NC(C)=O)C(=O)N[C@@H]([C@@H](C)CC)C(=O)N[C@@H](CCC(=O)O)C(=O)N[C@@H](CCC(=O)O)C(=O)N[C@H](CCCCNC(=O)CCc1cn(CCOCCOCCOCCN(CCOCCOCCOCCC(=O)N[C@H]3CSCCC(=O)N4CN5CN(C4)C(=O)CCSC[C@H](NC(=O)[C@@H](CC(=O)O)NC(=O)[C@H](Cc4cccc6ccccc46)NC(=O)[C@@H]4CCCN4C3=O)C(=O)N[C@@H](CCSC)C(=O)N[C@@H](CCCCNC(=N)N)C(=O)N[C@@H](CC(=O)O)C(=O)N[C@@H](Cc3c[nH]c4ccccc34)C(=O)N[C@@H](CO)C(=O)N[C@@H]([C@@H](C)O)C(=O)N3CCC[C@H]3C(=O)N3C[C@H](O)C[C@H]3C(=O)N[C@@H](Cc3c[nH]c4ccccc34)C(=O)N[C@H](C(N)=O)CSCCC5=O)CCOCCOCCOCCn3cc(CCC(=O)NCCCC[C@H]4NC(=O)[C@H](CCC(=O)O)NC(=O)[C@H](CCC(=O)O)NC(=O)[C@H]([C@@H](C)CC)NC(=O)[C@@H](NC(=O)[C@H](C)NC(C)=O)CSCCC(=O)N5CN6CN(C5)C(=O)CCSC[C@H](NC(=O)[C@H](Cc5ccc(O)cc5)NC(=O)[C@H](CCC(N)=O)NC4=O)C(=O)N[C@@H](Cc4ccccc4)C(=O)N[C@@H](C)C(=O)N[C@@H](CC(=O)O)C(=O)N4CCC[C@H]4C(=O)N[C@@H](Cc4ccc(O)cc4)C(=O)N[C@@H](CCCC)C(=O)N[C@H](C(=O)N[C@@H](C)C(N)=O)CSCCC6=O)nn3)nn1)C(=O)N[C@@H](CCC(N)=O)C(=O)N[C@@H](Cc1ccc(O)cc1)C(=O)N2` gave a Vd of 0.59 L/kg (rat, plasma; intravenous, 2 mg/kg).
With `CC(C)C[C@H]1C(=O)N[C@@H]([C@@H](C)O)C(=O)N[C@@H](CO)C(=O)N[C@@H](C)C(=O)N[C@H]([C@H](C)O)C(=O)N2CCC[C@H]2C(=O)N(C)[C@@H](CC(C)C)C(=O)N[C@H](Cc2ccc(O)cc2)C(=O)N[C@H](Cc2ccccc2)C(=O)N[C@H](C(C)C)C(=O)NCC(=O)N1C` the thermodynamic solubility was 183 µM (≈ 216 µg/mL) (aqueous buffer; 18 h, pH 7.4).
The half-life of `COCC1=N[C@@]2(O)[C@H](C(=O)N(C)OC)[C@@H](c3ccccc3)[C@]3(c4ccc(OC)cc4)Oc4cc(OC)cc(OC)c4[C@]23N1` is reported as 0.075 h (metabolic stability; male CD-1 mouse, liver microsomes; 1 µM, pH 7.4).
`CC[C@H](C)[C@H]1C(=O)N[C@H]([C@H](C)O)C(=O)NCC(=O)N[C@@H](CC(C)C)C(=O)N2CCC[C@H]2C(=O)N[C@@H](Cc2ccc(O)cc2)C(=O)N[C@H](CC(C)C)C(=O)N2CCC[C@@H]2C(=O)NCC(=O)N[C@@H](Cc2ccc(O)cc2)C(=O)N1C` gave a thermodynamic solubility of 936 µM (≈ 1020 µg/mL) (aqueous buffer; 18 h, pH 7.4).
`CN[C@@H]1C[C@H]2O[C@@](C)([C@@H]1OC)n1c3ccccc3c3c4c(c5c6ccccc6n2c5c31)C(=O)NC4` gave a viability of 23% (NCI-H1975; cell growth or viability, MTT; 100 µg).
For `COc1ncccc1-c1cnn2ccc(N3CCN(C(=O)OC(C)C)CC3)nc12`, the remaining binding was 100% (CDK11A (Homo sapiens, UniProt Q9UQ88); binding, competition with immobilised ligand; 1 µM).
For `CC[C@@H]1NC(=O)[C@H](CC(C)C)NC(=O)CN(C)C(=O)CNC(=O)[C@@H](CC(C)C)NC(=O)[C@@H](Cc2ccc(O)cc2)NC(=O)CSC[C@@H](C(=O)O)NC(=O)[C@H](C(C)C)NC(=O)[C@H](CC(C)C)NC(=O)[C@H](C)NC(=O)[C@H]([C@@H](C)CC)NC1=O`, the solubility was 137 µM (≈ 159 µg/mL) (aqueous buffer; pH 7.4).
`CC(c1cncnc1)n1c(=S)[nH]c2ccc(Cl)cc2c1=O` (stereo not shown) has a half-life of > 3.1 h (metabolic stability; human, liver microsomes; 1 µM, pH 7.4).
`Cl.Cn1c(=O)n(CCCCN2CCC3(CC2)OCc2ccccc23)c2ccccc21` gave a clearance of 26.2 mL/min/kg (male Sprague-Dawley rat, plasma; intravenous, 10 mg/kg).
With `CC(C)C[C@@H]1NC(=O)[C@H](CCCNC(=N)N)NC(=O)[C@H]2CCCN2C(=O)[C@@H](N)CSSC[C@@H](C(=O)O)NC(=O)[C@@H]2CCCN2C(=O)[C@H](Cc2ccccc2)NC(=O)[C@H](CC(C)C)NC(=O)[C@H]([C@@H](C)O)NC(=O)[C@H](C(C)C)NC1=O` the thermodynamic solubility was 872 µM (≈ 1000 µg/mL) (aqueous buffer; 18 h, pH 7.4).
`[2H]c1c([2H])c([C@]2([2H])CCCN2C(=O)C(C)(C)Oc2ccc3cn[nH]c3c2)c([2H])c([2H])c1C([2H])([2H])[2H]` gave a remaining binding of 65% (DYRK1B (Homo sapiens, UniProt Q9Y463); binding, competition with immobilised ligand; 1 µM).
With `N=c1c2c(-c3ccccc3)c(-c3ccccc3)n(Cc3ccccc3)c2ncn1[C@H]1CC[C@H](O)CC1` the half-life was 146 h (male beagle dog, plasma; oral, 1 mg/kg, single dose).

Some of these lines once more:
For `C=C(C)[C@@H]1CC[C@]2(NCCN3CCS(=O)(=O)CC3)CC[C@]3(C)[C@H](CC[C@@H]4[C@@]5(C)CC=C(C6=CC[C@@](COc7ncccc7C#N)(C(=O)O)CC6)C(C)(C)[C@@H]5CC[C@]43C)[C@@H]12`, the concentration was 317 ng/mL (human, plasma; oral, 100 mg, 24 h, fed).
`NC(=O)[C@@H]1CC(F)(F)CN1C(=O)c1ccc(N2CC(F)(F)C2)c(OCC2CC2)n1` gave a Vd of 3.5 L/kg (C57BL/6 mouse, plasma; intravenous).
For `C[C@H]1COCCN1c1nc(NCc2cccnc2C(F)(F)F)c2cccnc2n1`, the hepatocyte CLint was 4.6 µL/min/10⁶ cells (metabolic stability; monkey, hepatocytes).
For `Cc1nn(C)cc1-c1nc2c(N3CCN(Cc4ccc(Cl)cc4)CC3)c(Cl)cnc2[nH]1`, the remaining binding was 92% (CILK1 (Homo sapiens, UniProt Q9UPZ9); binding, competition with immobilised ligand; 1 µM).
